Published values collected from several papers.
A part holds a random share of what one study measured.
UniProt P49336, sequence (whole entry, looked up): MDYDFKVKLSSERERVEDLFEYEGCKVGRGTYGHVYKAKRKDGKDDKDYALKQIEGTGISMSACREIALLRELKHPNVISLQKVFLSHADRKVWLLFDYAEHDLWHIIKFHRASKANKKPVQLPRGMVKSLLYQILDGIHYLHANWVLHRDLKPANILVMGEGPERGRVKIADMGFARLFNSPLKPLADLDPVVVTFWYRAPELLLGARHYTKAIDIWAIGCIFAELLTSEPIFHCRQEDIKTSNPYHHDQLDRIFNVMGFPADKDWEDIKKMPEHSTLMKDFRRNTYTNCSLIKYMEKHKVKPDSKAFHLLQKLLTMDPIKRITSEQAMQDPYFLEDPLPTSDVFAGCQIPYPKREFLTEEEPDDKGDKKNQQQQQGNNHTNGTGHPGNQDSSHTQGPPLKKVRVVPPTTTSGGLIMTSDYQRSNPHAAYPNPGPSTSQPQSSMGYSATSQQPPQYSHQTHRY
UniProt Q8IY84, sequence (whole entry, looked up): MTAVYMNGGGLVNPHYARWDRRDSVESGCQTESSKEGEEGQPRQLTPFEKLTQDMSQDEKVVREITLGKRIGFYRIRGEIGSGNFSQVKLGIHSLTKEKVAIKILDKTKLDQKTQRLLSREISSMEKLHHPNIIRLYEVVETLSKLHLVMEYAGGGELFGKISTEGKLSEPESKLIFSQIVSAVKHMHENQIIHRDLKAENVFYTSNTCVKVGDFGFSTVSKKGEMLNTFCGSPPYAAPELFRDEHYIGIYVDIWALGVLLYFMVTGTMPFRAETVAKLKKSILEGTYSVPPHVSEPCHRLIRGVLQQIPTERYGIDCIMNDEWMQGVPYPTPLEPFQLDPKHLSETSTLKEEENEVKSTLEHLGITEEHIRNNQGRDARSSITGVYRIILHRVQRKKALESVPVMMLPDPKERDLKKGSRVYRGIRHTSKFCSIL
UniProt Q9P289, sequence (whole entry, looked up): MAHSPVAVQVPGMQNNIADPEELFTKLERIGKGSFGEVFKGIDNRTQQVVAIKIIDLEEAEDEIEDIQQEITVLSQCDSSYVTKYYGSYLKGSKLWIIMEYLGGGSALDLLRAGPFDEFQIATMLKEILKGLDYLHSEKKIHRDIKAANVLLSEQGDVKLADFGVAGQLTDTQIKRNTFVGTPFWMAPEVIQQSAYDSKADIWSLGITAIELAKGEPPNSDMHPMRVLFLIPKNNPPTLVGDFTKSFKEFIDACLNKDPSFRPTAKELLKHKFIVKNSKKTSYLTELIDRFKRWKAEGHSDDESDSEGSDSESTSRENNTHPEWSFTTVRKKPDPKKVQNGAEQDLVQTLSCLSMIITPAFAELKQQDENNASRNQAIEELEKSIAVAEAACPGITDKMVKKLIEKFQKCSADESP
UniProt Q9Y572, sequence (whole entry, looked up): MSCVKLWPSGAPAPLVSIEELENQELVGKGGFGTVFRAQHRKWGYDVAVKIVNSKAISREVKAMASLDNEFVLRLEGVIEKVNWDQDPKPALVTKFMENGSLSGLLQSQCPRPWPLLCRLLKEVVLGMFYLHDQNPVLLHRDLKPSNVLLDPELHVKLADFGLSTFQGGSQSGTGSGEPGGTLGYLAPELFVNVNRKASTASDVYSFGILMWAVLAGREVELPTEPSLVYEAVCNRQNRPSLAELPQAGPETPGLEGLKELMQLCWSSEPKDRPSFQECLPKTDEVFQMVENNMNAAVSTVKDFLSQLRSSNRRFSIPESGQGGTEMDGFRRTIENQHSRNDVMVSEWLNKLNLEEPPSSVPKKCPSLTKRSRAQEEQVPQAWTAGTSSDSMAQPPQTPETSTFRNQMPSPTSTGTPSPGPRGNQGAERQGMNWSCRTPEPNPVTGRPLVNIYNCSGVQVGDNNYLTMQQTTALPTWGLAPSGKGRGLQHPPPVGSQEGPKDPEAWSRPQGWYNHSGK
UniProt Q16816, sequence (whole entry, looked up): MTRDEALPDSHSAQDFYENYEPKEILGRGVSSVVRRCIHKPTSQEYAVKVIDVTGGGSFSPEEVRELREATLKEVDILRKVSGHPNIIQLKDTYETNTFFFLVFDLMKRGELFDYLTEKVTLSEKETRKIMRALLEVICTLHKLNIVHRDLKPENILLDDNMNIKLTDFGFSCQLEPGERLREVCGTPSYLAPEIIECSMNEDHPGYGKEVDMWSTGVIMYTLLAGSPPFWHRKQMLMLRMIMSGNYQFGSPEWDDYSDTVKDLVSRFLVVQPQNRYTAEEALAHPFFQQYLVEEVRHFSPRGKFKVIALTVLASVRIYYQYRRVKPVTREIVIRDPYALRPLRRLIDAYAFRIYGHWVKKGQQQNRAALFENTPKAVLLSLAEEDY

Block 1 — effect on: enzyme activity; mode: inhibitor; tested at: 0.5 µM; baseline: control; quantity: remaining activity
Target: Serine/threonine-protein kinase PAK 6 (PAK6, Homo sapiens, UniProt Q9NQU5)
UniProt Q9NQU5, sequence (whole entry, looked up): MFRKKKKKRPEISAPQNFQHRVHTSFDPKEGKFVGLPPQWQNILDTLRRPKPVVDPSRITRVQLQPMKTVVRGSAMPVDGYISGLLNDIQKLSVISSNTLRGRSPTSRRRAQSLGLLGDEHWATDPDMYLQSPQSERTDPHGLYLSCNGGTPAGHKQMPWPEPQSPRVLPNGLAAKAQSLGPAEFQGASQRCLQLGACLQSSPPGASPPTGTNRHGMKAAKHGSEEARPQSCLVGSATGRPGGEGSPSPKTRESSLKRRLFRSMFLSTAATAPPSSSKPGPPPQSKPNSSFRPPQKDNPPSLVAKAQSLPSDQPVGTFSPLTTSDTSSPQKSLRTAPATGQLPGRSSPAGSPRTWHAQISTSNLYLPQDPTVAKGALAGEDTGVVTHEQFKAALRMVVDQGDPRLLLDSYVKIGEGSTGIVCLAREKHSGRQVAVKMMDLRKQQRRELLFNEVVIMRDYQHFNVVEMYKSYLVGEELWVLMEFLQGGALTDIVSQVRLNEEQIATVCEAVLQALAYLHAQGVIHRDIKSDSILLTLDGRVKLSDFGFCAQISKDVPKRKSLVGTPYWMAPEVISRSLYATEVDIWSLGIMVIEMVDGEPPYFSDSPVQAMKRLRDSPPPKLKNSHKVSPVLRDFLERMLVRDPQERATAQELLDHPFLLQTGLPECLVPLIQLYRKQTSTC
O=S(=O)(c1cccc2cnccc12)N1CCCNCC1: 87%
Nc1ccc2ncnc(NCCc3ccc(Oc4ccccc4)cc3)c2c1: 105%
Cn1c2ccccc2c2c3c(c4c5ccccc5n(CCC#N)c4c21)CNC3=O: 20.4%
OCC(O)CCON=C1C(c2c(O)[nH]c3ccccc23)=Nc2ccccc21 (centres unmarked): 93.5%
Cn1sc(=O)n(Cc2ccccc2)c1=O: 93.4%
Cc1cccc(-c2[nH]c(C(C)(C)C)nc2-c2ccc3c(c2)OCO3)n1: 103%
C#Cc1cccc(Nc2ncnc3cc(OCCOC)c(OCCOC)cc23)c1: 104%
NCCNc1ncc(C(N)=O)c(Nc2cccc(C(F)(F)F)c2)n1: 94%
COc1ccc(OC)c2c(=S)c3ccccc3[nH]c12: 112%
COc1ccc(C(=O)Nc2sc3c(c2C(N)=O)CCCC3)cc1OC: 85.7%
COc1cc2nccc(Oc3ccc(NC(=S)NC(=O)c4ccccc4C)cc3)c2cc1OC: 95.8%
CNC(=O)c1cc(Oc2ccc(NC(=O)Nc3ccc(Cl)c(C(F)(F)F)c3)cc2)ccn1: 104%
O=C(CCCc1ccc(-c2ccccc2F)cc1)Nc1ccc(O)cc1: 108%
CN(C)c1ccc(C=C2C(=O)Nc3ccccc32)cc1: 96.9%
COc1cc2ncnc(Nc3ccc(F)c(Cl)c3)c2cc1OCCCN1CCOCC1: 105%

Block 2 — organism: Sarcocystis neurona; effect on: parasite growth; tested at: 10 µM; time: 96 h; notes: first screen; baseline: untreated; quantity: log2 fold change
CC[C@@]1(O)C(=O)OCc2c1cc1n(c2=O)Cc2cc3c(CN(C)C)c(O)ccc3nc2-1: 0.16
O=C1Nc2ccc(Cl)cc2[C@@](C#CC2CC2)(C(F)(F)F)O1: -0.34
NC(=O)N1c2ccccc2C=Cc2ccccc21: 0.21
CC[C@H]1OC(=O)[C@H](C)[C@@H](O[C@H]2C[C@@](C)(OC)[C@@H](O)[C@H](C)O2)[C@H](C)[C@@H](O[C@@H]2O[C@H](C)C[C@H](N(C)C)[C@H]2O)[C@](C)(OC)C[C@@H](C)C(=O)[C@H](C)[C@@H](O)[C@]1(C)O: 0.0135
CCCc1c(OCCCCc2nnn[nH]2)ccc(C(C)=O)c1O: 0.14

Block 3 — organism: Plasmodium berghei; mode: inhibitor; cell line: Huh-7; strain: GFP-expressing, liver stage; tested at: 10 µM; time: 24 h; baseline: untreated control; quantity: infection rate
Cn1c(=O)c2nc[nH]c2n(C)c1=O: 106%
CO[C@H]1/C=C/O[C@@]2(C)Oc3c(C)c(O)c4c(O)c(c(/C=N/N5CCN(C)CC5)c(O)c4c3C2=O)NC(=O)/C(C)=C\C=C\[C@H](C)[C@H](O)[C@@H](C)[C@@H](O)[C@@H](C)[C@H](OC(C)=O)[C@@H]1C: 88.9%
NC[C@H](O)c1ccc(O)c(O)c1: 86.8%
CCCN(CCC)S(=O)(=O)c1ccc(C(=O)O)cc1: 52.4%
CCCOc1ccc2[nH]c(NC(=O)OC)nc2c1: 88.1%
CC(=O)OCC(COC(C)=O)OC(C)=O: 95.6%
C[C@]12C=CC(=O)C=C1CC[C@@H]1[C@@H]2[C@@H](O)C[C@@]2(C)[C@H]1CC[C@]2(O)C(=O)CO: 82.5%

Block 4 — effect on: cell-free assay; technique: competition with immobilised ligand; tested at: 1 µM; quantity: remaining binding
SMILES: CN(c1ccnc(CNc2nc(Nc3ccc4c(c3)CC(=O)N4)ncc2C(F)(F)F)n1)S(C)(=O)=O
PHKG1 (Homo sapiens, UniProt Q16816): 76%
CDK8 (Homo sapiens, UniProt P49336): 97%
STK26 (Homo sapiens, UniProt Q9P289): 46%
NIM1K (Homo sapiens, UniProt Q8IY84): 9.5%

Mixed results
CC[C@H](C)c1nc2cc(Nc3ccnc4ccc(S(=O)(=O)C(C)C)cc34)ccc2s1  IC50 (Receptor-interacting serine/threonine-protein kinase 3 (RIPK3, Homo sapiens, UniProt Q9Y572); enzyme activity, inhibitor, ADP detection): 11.1 nM
